Assay results from different studies.
Protocols differ between the studies behind these lines. Numbers after ± are the reported error.

Cc1ncc(CO)c(C(=O)O)c1O gave a renal clearance of 182 mL/min (human; baseline geometric mean).
CO[C@]1(C(=O)N[C@@H](C)c2ccc(-n3cc(F)cn3)nc2)CC[C@H](c2nc(C)cc(Nc3cc(C)[nH]n3)n2)CC1 has a renal clearance of 6.3 mL/min (human; oral).
For C[C@@H](Oc1ccc(S(C)(=O)=O)cc1C(=O)N1C[C@@H]2C[C@]2(c2cc(C(F)(F)F)on2)C1)C(F)(F)F, the renal clearance was 6.28 mL/min (elderly humans, urine; oral, 50 mg once daily, 0-24 h, single dose, geometric mean).
CC(C)n1c(C2CCNCC2)nc2c([N+](=O)[O-])c(Br)c(Br)cc21 has a renal clearance of 10.3 mL/min (human; oral, 100 mg single dose, median).
The renal clearance of Cn1cc(-c2cn3nccc3c(-c3cnn([C@]4(CC#N)C[C@@H](C#N)C4)c3)n2)cn1 is reported as 10 mL/min (human, urine; 100 mg once daily, day 10, multiple dose, geometric mean).
For COc1cc(N2CCC(N3CCN(C)CC3)CC2)ccc1Nc1ncc(Cl)c(Nc2ccccc2P(C)(C)=O)n1, the renal clearance was 53.5 mL/min (human; oral, 180 mg).
NC[C@@]1(CC(=O)O)[C@@H]2CC[C@H]3C[C@@H]2[C@@H]1C3 gave a renal clearance of 30 ± 7.5 mL/min (human, severe renal impairment, urine; oral, 20 mg single dose).
O=C(c1nc2n(n1)[C@H](c1ccccc1)C[C@@H]2F)C1CC1 has a renal clearance of 0.096 to 0.242 mL/min (human; 150 mg single dose).
With C[C@@H](N)c1cc(Cl)ccc1Cn1c(=S)[nH]c(=O)c2[nH]ccc21 the renal clearance was 38.3 mL/min (human, both sexes, severe renal impairment, urine and plasma; oral, 2.5 mg single dose, 0-24 h urine collection, geometric mean).
CN(C)C(=O)c1cc2cnc(Nc3ccc(N4CCNCC4)cn3)nc2n1C1CCCC1 gave a renal clearance of 43 mL/min (human, moderate renal impairment, plasma and urine; oral, 400 mg, geometric mean).
The renal clearance of Cl.O=C(NC1CCOCC1)c1csc([C@@H]2C[C@H]2NCC2CC2)c1 is reported as 158 mL/min (human, fed, urine; oral, 30 mg single dose).
The renal clearance of Cc1cc(-c2nccc3c2ccn3CC(=O)Nc2ccc(-c3cnccn3)cn2)ccn1 is reported as 3.87 mL/min (human, plasma and urine; oral, 20 mg once daily, day 1, geometric mean).
Cl.[2H]C([2H])([2H])CC(=O)c1cnc(NC(=O)C2CC2)cc1Nc1cccc(-c2ncn(C([2H])([2H])[2H])n2)c1OC gave a renal clearance of 0.767 mL/min (human, fasted; oral, 40 mg, every 12 h multiple dose, mean).
CC(=O)N(C)[C@H]1CCN(C(=O)c2cnc3c(c2)C[C@](C)(c2ccc(F)cc2)N3)C1 gave a renal clearance of 183 mL/min (healthy male human, urine; oral, 30 mg once daily, 0-48 h steady state, geometric mean).
Cc1cc(C)c(CNC(=O)c2cc(Cl)c3c(c2C)O[C@@](C)([C@H]2CC[C@H](N(C)C)CC2)O3)c(=O)[nH]1 has a renal clearance of 31.3 mL/min (human, urine and plasma; oral, 200 mg).
With C[C@H](O)c1cc(C(=O)N[C@@H](C)Cn2ccc(-c3ccc(C#N)c(Cl)c3)n2)n[nH]1 the renal clearance was 7.23 mL/min (human, fasted, plasma; oral solution, 300 mg 14C-darolutamide, geometric mean).
With Cc1ccc(C(=O)NC2CC2)cc1-n1ncc(C(=O)c2cccc(C#N)c2)c1N the renal clearance was 7.47 mL/min (human; mass balance study).
CN[C@@H]1COc2c(S(=O)(=O)NC(=O)Nc3c4c(cc5c3CCC5)CCC4)cnn2C1 has a renal clearance of 7.37 mL/min (human, fasted, urine; oral, 600 mg, 48 h).

Excerpt of the above:
CC(=O)N(C)[C@H]1CCN(C(=O)c2cnc3c(c2)C[C@](C)(c2ccc(F)cc2)N3)C1 gave a renal clearance of 183 mL/min (healthy male human, urine; oral, 30 mg once daily, 0-48 h steady state, geometric mean).
CN(C)C(=O)c1cc2cnc(Nc3ccc(N4CCNCC4)cn3)nc2n1C1CCCC1 gave a renal clearance of 43 mL/min (human, moderate renal impairment, plasma and urine; oral, 400 mg, geometric mean).
